Measured values collected from several papers.
Several values in a cell are separate wells, animals, samples, runs or records. ± gives the spread as reported.
ZBTB11/CRBN: ZBTB11/CRBN (Homo sapiens, UniProt O95625+Q96SW2)
UniProt Q96SW2, sequence (whole entry, looked up): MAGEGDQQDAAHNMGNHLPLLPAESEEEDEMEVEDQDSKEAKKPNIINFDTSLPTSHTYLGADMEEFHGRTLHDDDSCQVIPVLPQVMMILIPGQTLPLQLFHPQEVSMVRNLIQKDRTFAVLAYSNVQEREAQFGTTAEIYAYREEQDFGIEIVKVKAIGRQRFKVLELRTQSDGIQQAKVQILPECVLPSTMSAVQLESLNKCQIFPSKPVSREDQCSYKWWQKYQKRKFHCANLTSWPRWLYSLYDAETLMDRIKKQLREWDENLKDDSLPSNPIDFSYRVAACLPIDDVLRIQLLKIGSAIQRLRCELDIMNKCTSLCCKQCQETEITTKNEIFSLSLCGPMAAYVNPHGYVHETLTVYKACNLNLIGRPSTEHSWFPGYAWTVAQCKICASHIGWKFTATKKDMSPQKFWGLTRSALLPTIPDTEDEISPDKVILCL
UniProt O95625, sequence (whole entry, looked up): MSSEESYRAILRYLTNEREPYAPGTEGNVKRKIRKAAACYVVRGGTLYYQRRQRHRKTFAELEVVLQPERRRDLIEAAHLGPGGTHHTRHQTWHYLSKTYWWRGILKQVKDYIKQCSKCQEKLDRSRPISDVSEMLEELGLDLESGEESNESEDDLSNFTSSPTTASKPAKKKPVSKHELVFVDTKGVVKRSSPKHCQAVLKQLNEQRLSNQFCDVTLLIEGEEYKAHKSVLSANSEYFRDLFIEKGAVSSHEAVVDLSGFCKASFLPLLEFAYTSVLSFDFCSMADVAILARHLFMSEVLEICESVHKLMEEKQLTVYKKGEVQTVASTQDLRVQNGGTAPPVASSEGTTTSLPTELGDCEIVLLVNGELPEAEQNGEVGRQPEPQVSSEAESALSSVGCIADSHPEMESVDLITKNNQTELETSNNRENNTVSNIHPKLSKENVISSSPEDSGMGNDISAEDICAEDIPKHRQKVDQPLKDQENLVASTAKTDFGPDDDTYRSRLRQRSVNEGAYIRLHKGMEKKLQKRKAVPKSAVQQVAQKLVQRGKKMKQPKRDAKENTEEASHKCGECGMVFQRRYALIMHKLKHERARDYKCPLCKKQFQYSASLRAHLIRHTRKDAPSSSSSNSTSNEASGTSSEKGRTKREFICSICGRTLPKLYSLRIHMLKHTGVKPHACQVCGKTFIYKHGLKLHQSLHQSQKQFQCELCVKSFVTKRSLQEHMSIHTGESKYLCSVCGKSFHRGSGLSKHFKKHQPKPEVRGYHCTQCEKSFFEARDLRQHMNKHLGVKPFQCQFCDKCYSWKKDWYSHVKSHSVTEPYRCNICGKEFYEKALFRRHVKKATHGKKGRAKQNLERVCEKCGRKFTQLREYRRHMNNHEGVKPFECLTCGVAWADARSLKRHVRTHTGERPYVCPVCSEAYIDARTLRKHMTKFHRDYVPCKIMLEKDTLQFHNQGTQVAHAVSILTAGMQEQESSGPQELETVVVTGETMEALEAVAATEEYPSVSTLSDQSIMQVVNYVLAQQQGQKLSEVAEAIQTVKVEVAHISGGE
IRAK3: Interleukin-1 receptor-associated kinase 3 (IRAK3, Homo sapiens, UniProt Q9Y616)
TOP2A: DNA topoisomerase 2-alpha (TOP2A, Homo sapiens, UniProt P11388)
UniProt P51575, sequence (whole entry, unmodified, looked up): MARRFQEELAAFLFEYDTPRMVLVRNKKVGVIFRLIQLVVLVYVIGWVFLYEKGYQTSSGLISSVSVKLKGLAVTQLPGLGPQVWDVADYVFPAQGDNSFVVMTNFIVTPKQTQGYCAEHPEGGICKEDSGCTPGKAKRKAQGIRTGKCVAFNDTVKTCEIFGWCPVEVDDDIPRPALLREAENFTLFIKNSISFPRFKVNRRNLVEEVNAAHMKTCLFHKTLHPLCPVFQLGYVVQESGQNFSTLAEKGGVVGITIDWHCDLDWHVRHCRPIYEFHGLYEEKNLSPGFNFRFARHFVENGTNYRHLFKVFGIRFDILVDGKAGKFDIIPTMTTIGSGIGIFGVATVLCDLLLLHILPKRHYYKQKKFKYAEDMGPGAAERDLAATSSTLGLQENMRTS
UniProt Q8IWT6, sequence (whole entry, unmodified, looked up): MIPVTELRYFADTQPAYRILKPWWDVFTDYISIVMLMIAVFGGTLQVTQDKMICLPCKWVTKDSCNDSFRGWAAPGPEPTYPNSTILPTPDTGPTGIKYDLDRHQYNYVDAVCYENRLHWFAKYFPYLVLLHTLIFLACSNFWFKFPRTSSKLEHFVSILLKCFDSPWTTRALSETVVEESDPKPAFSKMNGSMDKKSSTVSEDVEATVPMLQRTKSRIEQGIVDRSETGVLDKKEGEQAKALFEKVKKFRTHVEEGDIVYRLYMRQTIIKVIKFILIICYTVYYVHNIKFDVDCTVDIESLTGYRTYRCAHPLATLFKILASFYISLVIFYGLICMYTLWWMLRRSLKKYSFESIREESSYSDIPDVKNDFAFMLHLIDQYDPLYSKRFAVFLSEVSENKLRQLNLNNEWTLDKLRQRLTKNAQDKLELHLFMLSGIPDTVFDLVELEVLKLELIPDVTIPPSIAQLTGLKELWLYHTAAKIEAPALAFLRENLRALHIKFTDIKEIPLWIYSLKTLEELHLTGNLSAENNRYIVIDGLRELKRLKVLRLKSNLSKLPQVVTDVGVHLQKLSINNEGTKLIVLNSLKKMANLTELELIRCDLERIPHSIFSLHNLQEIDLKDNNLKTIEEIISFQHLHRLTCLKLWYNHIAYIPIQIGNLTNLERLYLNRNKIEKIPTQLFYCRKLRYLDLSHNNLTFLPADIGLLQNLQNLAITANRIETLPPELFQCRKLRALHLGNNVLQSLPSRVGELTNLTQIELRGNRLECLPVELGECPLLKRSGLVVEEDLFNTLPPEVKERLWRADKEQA
UniProt Q64663, sequence (whole entry, unmodified, looked up): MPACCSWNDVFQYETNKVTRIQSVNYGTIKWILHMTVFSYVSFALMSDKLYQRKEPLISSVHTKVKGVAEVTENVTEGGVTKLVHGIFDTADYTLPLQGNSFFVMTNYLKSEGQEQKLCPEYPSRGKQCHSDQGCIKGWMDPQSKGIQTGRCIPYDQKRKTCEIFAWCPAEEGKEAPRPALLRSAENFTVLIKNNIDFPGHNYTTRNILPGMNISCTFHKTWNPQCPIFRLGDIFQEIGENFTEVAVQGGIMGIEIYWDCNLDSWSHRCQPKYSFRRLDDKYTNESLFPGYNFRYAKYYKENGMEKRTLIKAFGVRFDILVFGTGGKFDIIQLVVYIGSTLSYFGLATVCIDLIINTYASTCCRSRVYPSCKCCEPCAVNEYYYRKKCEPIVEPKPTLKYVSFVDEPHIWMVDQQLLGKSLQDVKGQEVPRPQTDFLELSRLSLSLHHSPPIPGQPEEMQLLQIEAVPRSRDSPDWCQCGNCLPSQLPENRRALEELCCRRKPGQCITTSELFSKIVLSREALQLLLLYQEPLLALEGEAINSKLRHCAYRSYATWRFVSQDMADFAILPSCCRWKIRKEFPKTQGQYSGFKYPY
UniProt Q16774, sequence (whole entry, looked up): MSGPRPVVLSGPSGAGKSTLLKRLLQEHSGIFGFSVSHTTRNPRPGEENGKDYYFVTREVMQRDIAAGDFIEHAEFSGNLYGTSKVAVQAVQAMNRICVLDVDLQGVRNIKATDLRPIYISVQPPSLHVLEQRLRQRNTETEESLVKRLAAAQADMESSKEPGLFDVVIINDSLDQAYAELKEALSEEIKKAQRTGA
UniProt P11388, sequence (whole entry, looked up): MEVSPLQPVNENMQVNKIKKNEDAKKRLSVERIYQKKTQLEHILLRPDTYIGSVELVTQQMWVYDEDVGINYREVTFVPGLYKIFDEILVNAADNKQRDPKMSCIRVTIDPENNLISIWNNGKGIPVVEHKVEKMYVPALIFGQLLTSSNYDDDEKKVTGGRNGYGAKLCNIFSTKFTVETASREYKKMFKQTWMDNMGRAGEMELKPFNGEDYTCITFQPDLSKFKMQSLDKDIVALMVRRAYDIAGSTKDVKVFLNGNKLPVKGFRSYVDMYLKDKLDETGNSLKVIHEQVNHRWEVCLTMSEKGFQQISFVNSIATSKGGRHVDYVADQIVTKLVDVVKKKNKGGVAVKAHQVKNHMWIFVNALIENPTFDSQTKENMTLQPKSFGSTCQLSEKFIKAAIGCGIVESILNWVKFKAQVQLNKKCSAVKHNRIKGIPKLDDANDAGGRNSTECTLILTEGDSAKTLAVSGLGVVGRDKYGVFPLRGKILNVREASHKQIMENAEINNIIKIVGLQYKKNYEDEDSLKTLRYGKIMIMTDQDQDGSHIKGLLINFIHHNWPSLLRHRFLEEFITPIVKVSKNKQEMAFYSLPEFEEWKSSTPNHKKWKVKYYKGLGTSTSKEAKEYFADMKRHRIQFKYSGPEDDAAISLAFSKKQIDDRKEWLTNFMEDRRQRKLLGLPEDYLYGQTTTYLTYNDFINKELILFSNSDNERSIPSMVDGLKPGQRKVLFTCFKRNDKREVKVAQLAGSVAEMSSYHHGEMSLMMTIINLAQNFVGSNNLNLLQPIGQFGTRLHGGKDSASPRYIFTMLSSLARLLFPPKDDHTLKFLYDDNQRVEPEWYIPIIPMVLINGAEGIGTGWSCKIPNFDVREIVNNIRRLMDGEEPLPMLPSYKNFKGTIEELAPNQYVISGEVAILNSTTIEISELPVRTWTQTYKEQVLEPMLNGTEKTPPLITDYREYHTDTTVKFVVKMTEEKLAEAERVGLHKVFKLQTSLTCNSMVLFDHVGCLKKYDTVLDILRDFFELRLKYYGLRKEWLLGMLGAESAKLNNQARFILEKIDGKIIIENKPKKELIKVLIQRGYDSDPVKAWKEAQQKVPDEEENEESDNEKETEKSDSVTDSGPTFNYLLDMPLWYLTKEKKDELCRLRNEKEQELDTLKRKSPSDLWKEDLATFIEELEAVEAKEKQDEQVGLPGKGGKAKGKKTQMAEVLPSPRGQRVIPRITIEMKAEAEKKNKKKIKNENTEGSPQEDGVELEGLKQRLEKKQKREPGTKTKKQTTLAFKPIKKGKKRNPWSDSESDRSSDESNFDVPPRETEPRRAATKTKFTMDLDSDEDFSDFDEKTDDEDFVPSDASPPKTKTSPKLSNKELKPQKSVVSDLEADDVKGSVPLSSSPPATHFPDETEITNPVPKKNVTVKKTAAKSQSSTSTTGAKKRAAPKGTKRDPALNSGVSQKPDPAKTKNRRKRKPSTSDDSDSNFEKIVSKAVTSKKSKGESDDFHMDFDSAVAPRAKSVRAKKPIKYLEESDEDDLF

With `O=C(O)c1cccc(-c2noc(-c3ccccc3F)n2)c1` the kon was 3110 M⁻¹ s⁻¹ (Flavin reductase (NADPH) (BLVRB, Homo sapiens, UniProt P30043); binding).
The Ki ratio of `CCOC(=O)[C@H](CCSC)NC(=O)c1ccc(C2CC2)c(Cc2ccc(F)cc2)n1` is reported as 6 (Cannabinoid receptor 2 (CNR2, Homo sapiens, UniProt P34972); radioligand binding; baseline: CB1 over CB2 (human)).
`O=C1CCC(N2C(=O)C=C(Nc3cccc(C4(NCCc5ccc(Cl)c(C(F)(F)F)c5)CCC4)c3)C2=O)C(=O)N1` (stereo not drawn) gave a Dmax of 60% (ZBTB11/CRBN; degrader, HiBiT; MIA PaCa-2 (ZBTB11/CRBN-HiBiT knock-in); 10 µM, 5 h).
The FRET efficiency of `N#Cc1ccc2c(CN3CCOCC3)cc(-c3ccc([C@H]4CCC(=O)N4)cc3)nc2c1` is reported as 1.6 ± 0.4% (Advanced glycosylation end product-specific receptor, with DIAPH1 (AGER, Homo sapiens, UniProt Q15109); acceptor photobleaching; HEK-293T expressing RAGE-eCFP; 5.0 µM, 60 min).
`O=[N+]([O-])c1cc(C(F)(F)F)ccc1NCc1ccco1` gave a TΔS of 4.35 ± 0.293 kJ/mol (Endothelial PAS domain-containing protein 1, PAS-B domain (EPAS1, Homo sapiens, UniProt Q99814, N288A); binding, ITC, reverse mode).
For `C=CC(=O)N1CCC[C@@H](n2nc(-c3ccc(Oc4ccccc4)cc3)c3c(N)ncnc32)C1`, the remaining activity was 185% (Interferon-induced, double-stranded RNA-activated protein kinase (EIF2AK2, Homo sapiens, UniProt P19525); 1 µM).
`Nc1nc2c(ncn2[C@@H]2O[C@H](COP(=O)(O)O)[C@@H](O)[C@H]2O)c(=O)[nH]1` gave a reaction rate of 41.1 s⁻¹ and 38.9 s⁻¹ and 42.6 s⁻¹ (GUK1 (Homo sapiens, UniProt Q16774); enzyme activity, NADH-coupled; 2000 µM).
Under “normalised MST signal”, `NCCCCC(=O)O` is recorded as 0.0531 (Sodium- and chloride-dependent taurine transporter (SLC6A6, Homo sapiens, UniProt P31641, Y138A); binding, microscale thermophoresis; 61 nM, room temperature, together with: 50 nM labelled protein; higher = more binding).
For `CC[C@@H]1[C@H](F)C(=O)N[C@@H]1COc1nccc2cc(C(N)=O)c(OC)cc12`, the inhibition was 3.2% (Mitogen-activated protein kinase kinase kinase kinase 5 (MAP4K5, Homo sapiens, UniProt Q9Y4K4); ATP-site probe binding, ActivX profiling, measured: KHS1; THP-1 cell lysate; 0.2 mM, Lys1 site).
For `COc1ccccc1N1CCN(C(=O)c2cccc(S(=O)(=O)n3cncn3)c2)CC1`, “probe labelling blockade” read “inactive” (Aldo-keto reductase family 1 member C3 (AKR1C3, Homo sapiens, UniProt P42330); competitive gel-based ABPP; HEK-293T expressing AKR1C3; concentration not given, 5-120 min).
`[2H]c1cc(C)c(NC(=O)c2cnc(Nc3cc(N4CCCCC4)nc(C)n3)s2)c(Cl)c1` has an inhibition of < 30% (Vascular endothelial growth factor receptor 1 (FLT1, Homo sapiens, UniProt P17948); 0.01 µM).
`Nc1ncnc2c1ncn2[C@@H]1O[C@H](COP(=O)(O)CP(=O)(O)OP(=O)(O)O)[C@@H](O)[C@H]1O` has a calcium influx of 0.816% and 1.38% and 0.931% and 2.61% (P2X purinoceptor 1 (P2RX1, Homo sapiens, UniProt P51575, M214A); calcium influx; 100 nM; baseline: ionomycin response).
With `CN(C)CC#Cc1ccc2[nH]c3c(c2c1)-c1nc(N)ncc1CCC3` the remaining binding was 9.2% (IRAK3; DiscoverX scanMAX; 1 µM; baseline: untreated control).
`O=c1nc(SCc2cc(F)cc(C(F)(F)F)c2)nc(SCc2ccc3nc(Cl)ccc3c2)[nH]1`: “mean decatenated DNA” 0% (TOP2A; decatenation; 125 µM).
With `N=c1c[n+](N2CCOCC2)[n-]o1` the KI was 3.1 ± 0.9 µM (NAD-dependent protein deacylase sirtuin-6 (SIRT6, Homo sapiens, UniProt Q8N6T7); covalent inactivator, HPLC demyristoylase; pH 7.5, 37 °C, peroxynitrite donor, time-dependent, together with: NAD+).
`CCCCCCCC(=O)c1cc(OC)c(OC)c(OC)c1CC(=O)OCC` gave an activation of 0.77 fold (Nuclear receptor subfamily 5 group A member 2 (NR5A2, Homo sapiens, UniProt O00482); reporter gene, Gal4 hybrid reporter; 10 µM; baseline: vehicle).
`O=C(O)c1ccc(Nc2ncc3c(n2)-c2ccc(Cl)cc2C(c2c(F)cccc2F)=NC3)cc1` has a remaining activity of 100% (human PKA(h); kinase activity; 1 µM).
With `Nc1ncnc2c1ncn2[C@@H]1O[C@H](COP(=O)(O)OP(=O)(O)OP(=O)(O)O)[C@@H](O)[C@H]1O` the normalized current was 0.772 and 0.908 and 0.654 (P2X purinoceptor 7 (P2rx7, Rattus norvegicus, UniProt Q64663, Q143A/R125A); ion current, agonist, two-electrode voltage clamp; Xenopus laevis oocytes; 166 µM; baseline: highest concentration response).
For `CC(C)C[C@H](N)C(=O)Nc1ccc2ccccc2c1`, the Km was 1 µM (rat neuron-specific aminopeptidase; substrate).
`O=C(c1cc2c(s1)CCCCC2)N1CCC(n2c(=O)[nH]c3ccccc32)CC1`: “peak Ca2+ influx” 1.74 ± 0.173 (Short transient receptor potential channel 6 (TRPC6, Homo sapiens, UniProt Q9Y210); ion current, GCaMP6 calcium imaging; HEK293 transfected; 20 µM, unit not given, together with: 50 µM OAG; baseline: control).
`C=CC(=O)N1CCC(COCC(=O)N2CCN(c3nc(-c4cnc(N)nc4C(F)F)nc(N4CCOC[C@@H]4C)n3)CC2)CC1` gave a remaining binding of 97% (IRAK3; KINOMEscan; 1 µM).
With `CC(=O)Oc1ccc([N+](=O)[O-])cc1` the Km was 1920 ± 311 µM (Methylesterase 9 (MES9, Arabidopsis thaliana, UniProt O23171); substrate).
For `OC[C@H]1OC(O)[C@H](O)[C@@H](O)[C@@H]1O` (stereo partly drawn), the kcat was 38 ± 5 s⁻¹ (Hexokinase-3 (HK3, Homo sapiens, UniProt P52790, R480W); substrate inhibition; mutant R480W, partial substrate inhibition model, together with: ATP 20 mM).
Under GRK recruitment, `O=C(O)c1ccc(OCCCc2ccc(OCCCCOC3CCCCC3)cc2)c(C(=O)NC2CCCC(C(=O)O)C2)c1` (stereo not drawn) is recorded as “inhibited” (Cysteinyl leukotriene receptor 2 (CYSLTR2, Homo sapiens, UniProt Q9NS75); antagonist, NanoBiT; 5 µM, together with: LTC4 or LTD4).
With `COc1cc(-c2cc(C(C)=O)n3ccccc23)c(OC)cc1Cn1ccnc1` the ΔTm was 1 °C (Transcription initiation factor TFIID subunit 1 (TAF1, Homo sapiens, UniProt P21675)).
For `NCCCS(=O)(=O)O`, “normalised MST signal” read 0.0119 (Sodium- and chloride-dependent taurine transporter (SLC6A6, Homo sapiens, UniProt P31641, G62A); binding, microscale thermophoresis; 7.81 µM, room temperature, together with: 50 nM labelled protein; higher = more binding).
`O=C(Nc1cccc(C(F)(F)F)c1)N1CCN(c2cccc(C(F)(F)F)c2)CC1` — result for “outward current density”: 15 ± 2.4 pA/pF (CatSper channel complex (Homo sapiens, UniProt Q7RTX7+Q86XQ3+Q8NEC5+Q96P56); ion current, whole-cell patch clamp; human sperm; 10 µM, at +80 mV).
With `COc1cc(-c2cncc3c2CN(C)Cc2cc(N4CCNCC4)ccc2-3)cc(OC)c1OC` the remaining activity was 100% (Phosphatidylinositol 4,5-bisphosphate 3-kinase catalytic subunit alpha isoform, with p85 alpha (Pik3ca, Mus musculus, UniProt P42337, E542K); kinase activity; 1 µM, p110a(E542K)/p85a)(m mouse, together with: ATP 10 µM; baseline: DMSO).
Under “koff fast phase”, `CC[C@H](C)[C@@H]1NC(=O)[C@H](C)NC(=O)[C@H]([C@@H](C)CC)NC(=O)[C@H](CCC(N)=O)NC(=O)[C@H](C)NC(=O)[C@H](CCCNC(=N)N)NC(=O)[C@H](C(C)C)NC(=O)[C@H](CC(C)C)NC(=O)[C@H](CCC(=O)O)NC(=O)[C@H](CCCNC(=N)N)NC(=O)CNC(=O)[C@@H](NC(=O)[C@H](CC(C)C)NC(=O)[C@H](CCCCN)NC(=O)[C@@H](NC(=O)[C@@H](NC(=O)[C@H](CCC(=O)O)NC(=O)[C@H](CCC(=O)O)NC(=O)[C@H](CCSC)NC(=O)[C@H](Cc2c[nH]c3ccccc23)NC(=O)[C@H](CO)NC(=O)[C@@H](N)CC(=O)O)C(C)C)[C@@H](C)CC)CSSC[C@@H]2NC(=O)[C@@H](NC(=O)[C@H](CCCCN)NC(=O)[C@H](CC(N)=O)NC(=O)[C@H](C)NC(=O)[C@H](CC(C)C)NC(=O)[C@H](C)NC(=O)[C@H](CO)NC(=O)[C@H](Cc3ccc(O)cc3)NC(=O)[C@H](CC(C)C)NC(=O)[C@H](CCC(N)=O)NC(=O)c3ccc(-c4c5ccc(=[N+](C)C)cc-5oc5cc(N(C)C)ccc45)c(C(=O)[O-])c3)CSSC[C@H](NC(=O)CNC(=O)[C@H](C(C)C)NC(=O)[C@H](Cc3c[nH]cn3)NC2=O)C(=O)N[C@@H]([C@@H](C)O)C(=O)N[C@@H](CCCCN)C(=O)N[C@@H](CCCNC(=N)N)C(=O)N[C@@H](CO)C(=O)N[C@@H](CC(C)C)C(=O)N[C@@H](C)C(=O)N[C@@H](CCCNC(=N)N)C(=O)N[C@@H](Cc2ccccc2)C(=O)N[C@H](C(=O)O)CSSC[C@@H](C(=O)NCC(=O)N[C@@H](CCSC)C(=O)N[C@@H](CO)C(=O)N[C@H](C(=O)N[C@@H](Cc2c[nH]c3ccccc23)C(=O)N[C@@H](CO)C(=O)O)[C@@H](C)O)NC1=O` is recorded as 0.00921 s⁻¹ (Relaxin receptor 1 (RXFP1, Homo sapiens, UniProt Q9HBX9, F76A/Y80A); NanoBRET dissociation; infinite dilution, together with: 10 µM relaxin).
For `CC1=C(/C=C/C(C)=C/C=C/C(C)=C/C=C/C=C(C)/C=C/C=C(C)/C=C/C2=C(C)CCCC2(C)C)C(C)(C)CCC1`, “Stern-Volmer quenching constant” read 11400 ± 300 L/mol (Beta-lactoglobulin (LGB, Bos taurus, UniProt P02754); fluorescence quenching; 303 K).
`O=C1CCC(N2C(=O)C=C(Nc3cccc(C4(NCCc5ccc(Cl)c(C(F)(F)F)c5)CCC4)c3)C2=O)C(=O)N1` (stereo not drawn) has a Dmax of 72% (ZBTB11/CRBN; protein degradation, degrader, HiBiT luminescence; MOLT-4).
For `O=C[C@H](O)[C@@H](O)[C@H](O)[C@H](O)COP(=O)(O)O`, “z-scored log2 fold change” read 0.126 (binding, equilibrium dialysis LC-MS; 5 µM, thermostabilized A2AR-BRIL construct; baseline: no-protein control, direction not given).
`NS(=O)(=O)c1ccc(NC(=O)Nc2ccc(F)cc2)cc1` has a selectivity ratio of 213 (Carbonic anhydrase 12 (CA12, Homo sapiens, UniProt O43570); stopped-flow CO2 hydration; baseline: Ki CA II over Ki CA XII).
For `CCCCC[C@H](O)/C=C/[C@H]1[C@H](O)CC(=O)[C@@H]1C/C=C\CCCC(=O)O`, the Emax was 94.6 ± 7.45% (Prostaglandin E2 receptor EP1 subtype (PTGER1, Homo sapiens, UniProt P34995, F334L); IP1 accumulation, agonist; AD293; 1 h; baseline: wild type receptor).
`O=c1nc(SCc2cc(F)cc(C(F)(F)F)c2)nc(SCc2csc3ccc(Cl)cc23)[nH]1` has a decatenated DNA of 100% (DNA topoisomerase 2-beta (TOP2B, Homo sapiens, UniProt Q02880); decatenation; 1.95 µM, replicate 1).
`N#Cc1ccc2c(-c3ccncc3)c(-c3ccc(F)cc3)nn2c1` — result for “log2 fold change”: 0.465 (Negative regulator of the PHO system (PHO85, Candida albicans, UniProt Q9HGY5); kinase binding, competitor, MIB/MS competition, measured: PHO85; Candida albicans cell lysate; 10 µM; baseline: DMSO).
For `CCC(CC)(NCCc1ccc(C(F)(F)F)c(Cl)c1)c1cccc(NC2=CC(=O)N(C3CCC(=O)NC3=O)C2=O)c1` (stereo not drawn), the Dmax was 74% (ZBTB11/CRBN; protein degradation, degrader, HiBiT luminescence; MOLT-4).
`O=c1nc(SCc2cc(F)cc(C(F)(F)F)c2)nc(SCc2ccc3sccc3c2)[nH]1` — result for “mean decatenated DNA”: 100% (TOP2A; decatenation; 7.8 µM).
`O=C(Nc1cccc2c(=O)cc(-c3nnn[nH]3)oc12)c1ccc(OCCCCc2ccccc2)cc1` gave an inhibition of 44% and 19% and 43.5% and 41.4% and 12.9% and 38.8% (LRRC8A/LRRC8C (Homo sapiens, UniProt Q8IWT6+Q8TDW0, L134K/L136K); ion current, whole-cell patch clamp; HCT LRRC8-/- cells; 1 µM, -100 mV, L134K/L136K heteromers).
`Cc1ncsc1-c1ccc(CNC(=O)[C@@H]2C[C@@H](O)CN2C(=O)[C@@H](NC(=O)CCCCCCCCCCCC(=O)NCCCCC#Cc2cccc(-c3nn(-c4nc(C(=O)O)cs4)c(CC4CC4)c3Cc3ccc(S(N)(=O)=O)cc3)c2)C(C)(C)C)cc1` — result for “time to maximal degradation”: 48 h (L-lactate dehydrogenase A chain (LDHA, Homo sapiens, UniProt P00338); degrader, western blot; PANC-1; 1 µM).
`CC(C)OCCn1c(=S)[nH]c(=O)c2[nH]ccc21` gave an H2O2 concentration of -34.5 µM (Myeloperoxidase (MPO, Homo sapiens, UniProt P05164); H2O2 consumption, inhibitor, H2O2 electrode; 10 µM, 0 s).
Under “potentiation of ACh response”, `CCOc1ccc(NC(=O)O[C@@H](Cn2nc(C(C)C)cc2C(C)C)C(C)C)cc1` is recorded as ~15 fold (Neuronal acetylcholine receptor; alpha4/beta4 (Homo sapiens, UniProt P30926+P43681); two-electrode voltage clamp; Xenopus oocytes; concentration not given, together with: ACh 3 µM).
